Published values of several laboratories.
Compare with care: the assays were run in different laboratories. ± gives the spread as reported.

Compound = CC[C@H](C)[C@H](NC(=O)[C@H](CCCCN)NC(=O)[C@H](CCCCN)NC(=O)[C@H](CC(C)C)NC(=O)[C@H](CCCCN)NC(=O)[C@H](CCC(=O)O)NC(=O)[C@H](CCCCN)NC(=O)[C@@H](NC(=O)[C@H](CCCCN)NC(=O)[C@H](CC(N)=O)NC(=O)[C@H](CCCNC(=N)N)NC(=O)[C@H](Cc1ccccc1)NC(=O)[C@H](CCCCN)NC(=O)[C@H](CCCNC(=N)N)NC(=O)[C@H](CC(C)C)NC(=O)[C@H](CCCNC(=N)N)NC(=O)[C@H](CCCCN)NC(=O)[C@H](CCCNC(=N)N)NC(=O)[C@H](CC(C)C)NC(=O)[C@@H](N)CC(C)C)[C@@H](C)CC)C(=O)NCC(=O)N[C@@H](CCC(N)=O)C(=O)N[C@@H](CCCCN)C(=O)N[C@H](C(=O)N[C@@H](CCC(N)=O)C(=O)NCC(=O)N[C@@H](Cc1ccccc1)C(=O)N[C@H](C(=O)N1CCC[C@H]1C(=O)N[C@@H](CCCCN)C(=O)N[C@@H](CC(C)C)C(=O)N[C@H](C(=O)N1CCC[C@H]1C(=O)N[C@@H](CCCNC(=N)N)C(=O)N[C@H](C(=O)N[C@@H](CCC(=O)O)C(=O)N[C@@H](CO)C(=O)O)[C@@H](C)O)C(C)C)C(C)C)[C@@H](C)CC; organism = Streptomyces griseus; test = inhibition zone; system = NBRC 13350; conditions = 37 °C, LB agar, 154 mM NaCl; quantity = lethal concentration; value = 5.68 µM
Compound = CCCCc1ccc(-c2nc(C)c(C(C)=NNC(=N)N)s2)cc1; organism = Staphylococcus aureus; system = USA300 MRSA; conditions = 3 × MIC, 37 °C; quantity = time to complete kill; value = ≤ 4 h
Compound = CON(C(=O)c1cn(C)nc1C(F)F)C(C)Cc1c(Cl)cc(Cl)cc1Cl (stereo not shown); organism = Exserohilum turcicum; test = microbial growth; conditions = 1.56 µg/mL; quantity = inhibition; value = 100%
Compound = CCN(CCCCOc1ccc(CCC(=O)N2CCC(Cc3ccccc3)CC2)cc1OC)Cc1ccccc1; organism = Danio rerio; system = BuChE-overexpressing; conditions = concentration not given, light to dark transition; quantity = response capacity; value = increased
Compound = CN[C@@H]1[C@H](O)[C@H](NC)[C@H]2O[C@]3(O)[C@H](O[C@@H]2[C@H]1O)O[C@H](C)C[C@@]3(O)CNCc1ccc(OC(F)(F)F)cc1; organism = Neisseria gonorrhoeae; system = ATCC 49226; conditions = 40 µg per disc; quantity = inhibition zone diameter; value = 16 to 20 mm
Compound = OC(CN1CCC2(CC1)CC(O)c1ccc3ccccc3c1O2)c1ccc(F)c(F)c1 (stereo not shown); organism = Plasmodium berghei; system = ANKA, BALB/c mice; conditions = oral, dose not given; how to read = relative to: control; quantity = survival prolongation; value = > 1.7 fold
Compound = COc1ccc(-c2nc(C(=O)NCc3ccc(C)cc3)c(O)c3ncccc23)c(OC)c1; organism = Human betaherpesvirus 5; test = viral replication, inhibitor; system = HFF; conditions = 10 µM; quantity = inhibition; value = 100%
Compound = Nc1ccn(C[C@@H](CO)OCP(=O)(O)OCCCS(=O)(=O)CCCCCCCCCCCCC2CCC2)c(=O)n1; organism = Betapolyomavirus hominis; test = qPCR; system = Gardner; how to read = relative to: CC50 over EC50; quantity = selectivity index; value = 8
Compound = CC[C@H](C)[C@H](NC(=O)[C@H](CCCCN)NC(=O)[C@H](CCCCN)NC(=O)[C@H](CC(C)C)NC(=O)[C@H](CCCCN)NC(=O)[C@H](CCC(=O)O)NC(=O)[C@H](CCCCN)NC(=O)[C@@H](NC(=O)[C@H](CCCCN)NC(=O)[C@H](CC(N)=O)NC(=O)[C@H](CCCNC(=N)N)NC(=O)[C@H](Cc1ccccc1)NC(=O)[C@H](CCCCN)NC(=O)[C@H](CCCNC(=N)N)NC(=O)[C@H](CC(C)C)NC(=O)[C@H](CCCNC(=N)N)NC(=O)[C@H](CCCCN)NC(=O)[C@H](CCCNC(=N)N)NC(=O)[C@@H](N)CC(C)C)[C@@H](C)CC)C(=O)NCC(=O)N[C@@H](CCC(N)=O)C(=O)N[C@@H](CCCCN)C(=O)N[C@H](C(=O)N[C@@H](CCC(N)=O)C(=O)NCC(=O)N[C@@H](Cc1ccccc1)C(=O)N[C@H](C(=O)N1CCC[C@H]1C(=O)N[C@@H](CCCCN)C(=O)N[C@@H](CC(C)C)C(=O)O)C(C)C)[C@@H](C)CC; organism = Bacillus megaterium; test = inhibition zone; system = CGMCC 1.046; quantity = lethal concentration; value = 1.46 µM
Compound = CN(C)CCNC(=O)/C=C/C(Cc1ccccc1)Nc1ccnc2cc(Cl)ccc12 (stereo not shown); organism = Plasmodium berghei; system = NAT atovaquone-resistant, ICR mouse infected; conditions = 10 mg/kg, 2 days post infection; quantity = body weight; value = 26.6 ± 1.43 g
Compound = COC(=O)c1cnc(-c2cnccn2)cc1C(=O)OC.COC(=O)c1cnc(-c2cnccn2)cc1C(=O)OC.F[P-](F)(F)(F)(F)F.[Ag+]; organism = Chromobacterium violaceum; test = violacein production (quorum sensing); system = CV026; conditions = 100 µg/disc; quantity = inhibition zone diameter; value = 5 mm
Compound = O=C(C=CC(Cc1ccccc1)Nc1ccnc2cc(Cl)ccc12)NCCN1CCOCC1 (stereo not shown); organism = Plasmodium berghei; system = NK65, ICR mouse; conditions = 20 mg/kg once daily, 6 days post-infection; quantity = survival rate; value = 60%
Compound = CC[C@H](C)[C@H](NC(=O)[C@H](CCCCN)NC(=O)[C@H](CCCCN)NC(=O)[C@H](CC(C)C)NC(=O)[C@H](CCCCN)NC(=O)[C@H](CCC(=O)O)NC(=O)[C@H](CCCCN)NC(=O)[C@@H](NC(=O)[C@H](CCCCN)NC(=O)[C@H](CC(N)=O)NC(=O)[C@H](CCCNC(=N)N)NC(=O)[C@H](Cc1ccccc1)NC(=O)[C@H](CCCCN)NC(=O)[C@H](CCCNC(=N)N)NC(=O)[C@H](CC(C)C)NC(=O)[C@H](CCCNC(=N)N)NC(=O)[C@H](CCCCN)NC(=O)[C@H](CCCNC(=N)N)NC(=O)[C@H](CC(C)C)NC(=O)[C@@H](N)CCCNC(=N)N)[C@@H](C)CC)C(=O)NCC(=O)N[C@@H](CCC(N)=O)C(=O)N[C@@H](CCCCN)C(=O)N[C@H](C(=O)N[C@@H](CCC(N)=O)C(=O)NCC(=O)N[C@@H](Cc1ccccc1)C(=O)N[C@H](C(=O)N1CCC[C@H]1C(=O)N[C@@H](CCCCN)C(=O)N[C@@H](CC(C)C)C(=O)N[C@@H](CCC(N)=O)C(=O)N1CCC[C@H]1C(=O)N[C@@H](CO)C(=O)N[C@@H](CCCCN)C(=O)N[C@@H](CCC(N)=O)C(=O)N[C@@H](CO)C(=O)O)C(C)C)[C@@H](C)CC; organism = Salmonella; test = inhibition zone; system = DZ.3G; conditions = LB agar, overnight; quantity = lethal concentration; value = 2.17 µM
Compound = CCCCCCCOP(=O)(O)Oc1c2c(c(OP(=O)(O)OCCCCCCC)c3c1C1CC3c3cc4c(cc31)C1CC4c3ccccc31)C1CC2c2cc3c(cc21)C1CC3c2ccccc21; organism = measles virus; test = viral infection, flow cytometry; system = A549, vaccine strain GFP; conditions = 2 days, virus pre-incubated 30 min 37 °C; quantity = IC50; value = 4 µM
Compound = CS(=O)(=O)c1ccc(/C=N/NC(=O)Cn2ccc(=O)c3ccccc32)cc1; organism = Alternaria solani; test = microbial growth; conditions = 50 µg/mL; quantity = inhibition; value = 30.8%
Compound = COc1ccc2c(c1)/C(=N\Nc1nnc3n1N=C(c1ccccc1)CS3)C(=O)N2; organism = Gallus gallus; test = angiogenesis, HET-CAM; system = chorioallantoic membrane; conditions = 40 µM, day 11; how to read = relative to: DMSO control; quantity = capillary number reduction; value = 56%

A few entries again:
Compound = CON(C(=O)c1cn(C)nc1C(F)F)C(C)Cc1c(Cl)cc(Cl)cc1Cl (stereo not shown); organism = Exserohilum turcicum; test = microbial growth; conditions = 1.56 µg/mL; quantity = inhibition; value = 100%
